Experimental data of several laboratories.
Protocols differ between the studies behind these lines. ± gives the spread as reported.

SMILES | organism | method | cell line | strain | relative to | selectivity index
C=C(C)[C@@H]1CC[C@]2(C(=O)NC(CO)Cc3ccccc3)CC[C@]3(C)[C@H](CC[C@@H]4[C@@]5(C)CCCNC(C)(C)[C@@H]5CC[C@]43C)[C@@H]12 (stereo partly shown) | Human cytomegalovirus | – | HFF | AD169 | CC50 over EC50 | < 3
CC(=NNC(=N)N)c1nnn(-c2ccc(C#CC3(O)CCCCC3)cc2)c1C | Clostridioides difficile | – | WI-38 | ATCC BAA-1870 | WI-38 IC50 over MIC | 17.6
C[C@H]1[C@H](C)CC[C@]2(CO)CC[C@]3(C)C(=CC[C@@H]4[C@@]5(C)CCCNC(C)(C)[C@@H]5CC[C@]43C)[C@H]12 | Human alphaherpesvirus 1 | – | HFF | E-377 | CC50 over EC50 | < 1
Nc1ccn(C[C@@H](CO)OCP(=O)(O)OCCCS(=O)(=O)CCCCCCCCCCCCC2CCC2)c(=O)n1 | JC polyomavirus | qPCR | COS-7 | MAD-4 | CC50 over EC50 | 17
CCC1(O)C([N+](=O)[O-])=NNc2nc(SC)nn21 (stereo not shown) | coxsackievirus B3 | – | Vero | Nancy | CC50 over IC50 | 2
CC[C@H](C)[C@@H]1NC(=O)[C@@H]2[C@H](CCN2C(=O)[C@@H](NC(=O)[C@@H](C)NC)[C@@H](C)CC)Oc2ccc(OC)c(c2)/C=C\NC1=O | porcine epidemic diarrhea virus | – | Vero cells | – | CC50 over EC50 | 47.1 ± 0.49
CCOC(=O)c1cnn2c1NN=C([N+](=O)[O-])C2(O)CC (stereo not shown) | coxsackievirus B3 | – | Vero | Nancy | CC50 over IC50 | 2
CC1(C)NCCC[C@]2(C)[C@H]3C=CC4=C5C[C@@](C)(CO)CC[C@]5(C)CC[C@@]4(C)[C@]3(C)CC[C@@H]12 | Human cytomegalovirus | – | HFF | AD169 | CC50 over EC50 | < 3
Nc1ccn(C[C@@H](CO)OCP(=O)(O)OCCCS(=O)(=O)CCCCCCCCCCCCCC2CCC2)c(=O)n1 | JC polyomavirus | qPCR | COS-7 | MAD-4 | CC50 over EC50 | 14
CCC1(O)C([N+](=O)[O-])=NNc2ncnn21 (stereo not shown) | coxsackievirus B3 | – | Vero | Nancy | CC50 over IC50 | 2

A few entries again:
SMILES | organism | method | cell line | strain | relative to | selectivity index
CCC1(O)C([N+](=O)[O-])=NNc2nc(SC)nn21 (stereo not shown) | coxsackievirus B3 | – | Vero | Nancy | CC50 over IC50 | 2
